Published values gathered from unrelated publications.
Lines come from different studies, so protocols differ. Values joined by “and” are separate records of one study, mostly repeats; a detail may differ. ± marks the error that the study gave.
ESR1: Estrogen receptor (ESR1, Homo sapiens, UniProt P03372)
Glutamate receptor 2: Glutamate receptor 2 (Homo sapiens, UniProt P42262)
Genome polyprotein NS3 helicase domain: Genome polyprotein, NS3 helicase domain (Hepatitis C virus genotype 1b, UniProt Q9WMX2)
CNR1: Cannabinoid receptor 1 (CNR1, Homo sapiens, UniProt P21554)

COc1ccc(-c2coc3cc(O)ccc3c2=O)cc1O — selectivity ratio (ESR1; array formation; PRL-HeLa; reference: EC50 ERβ over EC50 ERα): 0.541
CC(C)(C)OC(=O)N1CCCC(c2ccc(C(=O)N3CCC(C#N)CC3)cc2)C1 (stereo not drawn) — binding (WD repeat-containing protein 91, WD40 domain, residues 392–747 (Homo sapiens, UniProt A4D1P6); SPR; 45 µM): -9% and 11%
O=c1c(O[C@@H]2O[C@H](CO)[C@@H](O)[C@H](O)[C@H]2O)c(-c2ccc(O)c(O)c2)oc2cc(O[C@@H]3O[C@H](CO[C@@H]4O[C@H](CO)[C@@H](O)[C@H](O)[C@H]4O)[C@@H](O)[C@H](O)[C@H]3O)cc(O)c12 — selectivity ratio (ESR1; array formation; PRL-HeLa; reference: EC50 ERβ over EC50 ERα): 0.723
COc1cc(O)c2c(c1)oc(=O)c1c3cc(O)c(O)cc3oc21 — ΔG (MAL12 (Saccharomyces cerevisiae S288c, UniProt P53341); fluorescence quenching; 310 K): -1.47 kcal/mol
C=CC(=O)N1CCC(COCC(=O)N2CCN(c3nc(-c4cnc(N)nc4C(F)F)nc(N4CCOC[C@@H]4C)n3)CC2)CC1 — remaining binding (SBK3 (Homo sapiens, UniProt P0C264); KINOMEscan; 1 µM): 91%
O=C1Nc2c(ccc(Cl)c2Cl)C1=NO — Hill coefficient for calcium (KCNN4/CALM1 (Homo sapiens, UniProt O15554+P0DP23); inside-out patch clamp; 1 µM): 2
CC(=O)N[C@H](C(=O)N[C@@H](CC(N)=O)C(=O)N[C@@H](CCCCN)C(=O)N1CCC[C@H]1C(=O)N[C@@H](CC(C)C)C(=O)N1CCC[C@H]1C(=O)N1CCC[C@H]1C(=O)N[C@@H](CC(C)C)C(=O)N1CCC[C@H]1C(=O)N[C@H](C(=O)N[C@@H](C)C(N)=O)C(C)C)C(C)C — enthalpy change (Tyrosine-protein kinase Fyn, SH3 domain (FYN, Homo sapiens, UniProt P06241); binding, isothermal titration calorimetry; 50 mM sodium phosphate, 100 mM NaCl; concentration not given, pH 7.0, 25 °C): -8.461 ± 0.0239 kcal/mol
CCC1(O)CCCN(C(=O)c2ccc(-c3ccc(F)c(NC(=O)CCl)c3)cc2)C1 (stereo not drawn) — protein adduct (DNA dC->dU-editing enzyme APOBEC-3A (Homo sapiens, UniProt P31941); covalent modifier, intact protein mass spectrometry, item: adduct +26691 Da; 125 µM, 3 h, 5-fold molar excess): 0%
CCCN1C[C@H](CSC)C[C@@H]2c3cccc4[nH]cc(c34)C[C@H]21 — activation (Glutamate receptor 2; ion current, agonist, SyncroPatch patch clamp; HEK293; 30 µM): 3%
Nc1ccc(C(=O)O)cc1 — current density (BEST1 (Homo sapiens, UniProt O76090); whole-cell patch clamp; HEK293 transiently expressing channel; concentration not given, membrane potential 80 mV): 115 pA/pF and 60.1 pA/pF and 139 pA/pF and 71 pA/pF and 83.8 pA/pF and 134 pA/pF and 105 pA/pF
CC[C@@H]1[C@H](F)C(=O)N[C@@H]1COc1nccc2cc(C(N)=O)c(OC)cc12 — inhibition (MAPK9 (Homo sapiens, UniProt P45984); ATP probe binding, KiNativ profiling, item: Lys1 probe site; THP-1 cell lysate; 0.01 mM): -10%
O=C(O)C(O)c1ccccc1 (stereo not drawn) — delta Tm (Uncharacterized protein (Chromohalobacter israelensis, UniProt Q1QT90); binder, thermal shift): 9.4 °C
CCN1CCN(c2cc(N3CCN(CC)CC3)nc(NCCNc3ccnc4cc(Cl)ccc34)n2)CC1 — activation (RORC (Homo sapiens, UniProt P51449); reporter gene, Gal4 hybrid reporter; 20 µM; reference: vehicle): 0.77 fold
Nc1ncnc2c1ncn2[C@@H]1O[C@H](COP(=O)(O)CP(=O)(O)OP(=O)(O)O)[C@@H](O)[C@H]1O — specific binding (P2X purinoceptor 1 (P2RX1, Homo sapiens, UniProt P51575, K136W); saturation binding; HEK293; 52 nM): 3080 CCPM and 2440 CCPM
OCc1cc(C(O)CNCCCCCCOCCCCc2ccccc2)ccc1O (stereo not drawn) — inhibition (Genome polyprotein NS3 helicase domain; DNA binding, inhibitor; hepatitis C virus; 100 µM, added: Cy5-dT15 DNA): 2%
O=C(COP(=O)(O)O)[C@@H](O)[C@H](O)[C@H](O)COP(=O)(O)O — thermal stability ratio (SFN (Homo sapiens, UniProt P31947); thermal proteome profiling; HepG2 cell lysate; concentration not given, 57 over 37 °C; reference: compound over control): 0.119 and 0.716 and 0.764
CCCN1CC(Oc2ccc([C@@H]3c4[nH]c5ccccc5c4C[C@@H](C)N3CC(C)(C)F)cc2)C1 — Emax (ESR1; alkaline phosphatase, agonist; Ishikawa; 72 h, estrogen-depleted medium, no estradiol): 0%
CC(C)(O)c1ccc(-c2nc3cc(NC(=O)c4cnc(OCc5ccccc5)nc4)ccc3c(=O)[nH]2)cc1 — selectivity ratio (TNKS2 (Homo sapiens, UniProt Q9H2K2); PARylation, inhibitor, biochemical PARylation; reference: TNKS1 IC50 over TNKS2 IC50): 389
O=S(=O)(NC1CCN(c2ncnc3c2nc(-c2ccccc2Cl)n3-c2ccc(C(F)(F)F)nc2)CC1)c1ccccc1F — selectivity ratio (CNR1; binding, [3H]CP55940 displacement; reference: Ki CB2 over Ki CB1): 100
Cc1ccc(N2CC(C(N)=O)CC2=O)cc1 (stereo not drawn) — log fold enrichment (SPRY domain-containing SOCS box protein 2, SPRY domain (Homo sapiens, UniProt Q99619); binding, affinity selection mass spectrometry; reference: other proteins in batch): 0.111
Nc1ccc(C(=O)O)cc1 — product formation (N-alpha-acetyltransferase 80 (NAA80, Homo sapiens, UniProt Q93015); substrate, DTNB; 2 mM, 30 min, 37 °C, added: acetyl-CoA 500 µM): -4.12 µM
Nc1nc2c(ncn2[C@@H]2O[C@H](COP(=O)(O)O)[C@@H](O)[C@H]2O)c(=O)[nH]1 — reaction rate (GUK1 (Homo sapiens, UniProt Q16774, T83A); enzyme activity, NADH-coupled; 62.5 µM): 14.4 s⁻¹ and 10.8 s⁻¹ and 11 s⁻¹
COc1cc(/C=C2\CCC/C(=C\c3ccc(O)c(OC)c3)C2=O)ccc1O — binding stoichiometry (haemin; isothermal titration calorimetry; concentration not given, pH 7.4, 37 °C): 0.42 ± 0.01
C[C@]12CC[C@@H]3c4ccc(O)cc4C[C@@H](CCCCCCCCC[S+]([O-])CCCC(F)(F)C(F)(F)F)[C@H]3[C@@H]1CC[C@@H]2O (stereo partly drawn) — antagonist response (ESR1; antagonist, CALUX reporter; U2OS; 3e-08 µg/mL): 48%
O=S(=O)(O)C1CCNCC1 — normalised MST signal (SLC6A6 (Homo sapiens, UniProt P31641, Y138A); binding, microscale thermophoresis; 244 nM, room temperature, added: 50 nM labelled protein; higher = more binding): -0.0516
C=C1[C@@H]2CC[C@@H](C2)[C@@]1(C)CC/C=C(/C)CO — displacement (CNR1; radioligand binding; 10 µM): < 16%
CC(C)NCC(O)COc1cccc2ccccc12 (stereo not drawn) — potentiation (Glutamate receptor 2; ion current, positive allosteric modulator, SyncroPatch patch clamp; HEK293; 30 µM): 105%
O=C1c2c(O)ccc(O)c2C(=O)c2c(NCCNCCO)ccc(NCCNCCO)c21 — inhibition (Genome polyprotein NS3 helicase domain; DNA binding, inhibitor; hepatitis C virus; 100 µM, added: Cy5-dT15 DNA): 119%
CCN(CC)Cc1cn(Cc2ccc(C(=O)N[C@@H]3CCc4c(C#N)cccc43)cc2)nn1 — binding (WD repeat-containing protein 91, residues 392–747 (Homo sapiens, UniProt A4D1P6); SPR dose-response titration; concentration not given, 1:1 binding model): 103% and 96%
NCCCC(=O)O — inhibition (Genome polyprotein NS3 helicase domain; DNA binding, inhibitor; hepatitis C virus; 100 µM, added: Cy5-dT15 DNA): 0%
CC[C@H](C)[C@H](NC(=O)[C@H](CCCCN)NC(=O)CNC(=O)[C@@H](NC(=O)[C@@H](NC(=O)[C@H](CCSC)NC(=O)[C@H](Cc1c[nH]cn1)NC(=O)CN)[C@@H](C)O)C(C)C)C(=O)N[C@@H](Cc1ccc(O)cc1)C(=O)N[C@@H](C)C(=O)N[C@@H](C)C(=O)N[C@@H](C)C(=O)N[C@@H](CCSC)C(=O)N[C@H](C(=O)N[C@@H](CCSC)C(=O)N[C@@H](CCC(=O)O)C(=O)N[C@@H](Cc1ccc(O)cc1)C(=O)N[C@@H](Cc1ccc(O)cc1)C(=O)N[C@@H](CCCNC(=N)N)C(=O)N[C@@H](CCC(N)=O)C(=O)N[C@@H](CO)C(=O)N[C@@H](CCCCN)C(=O)N[C@@H](C)C(=O)N[C@@H](CCCCN)C(=O)N[C@@H](CCCCN)C(=O)N[C@@H](CC(C)C)C(=O)N[C@@H](CCC(N)=O)C(=O)N[C@@H](C)C(=O)N[C@@H](CCSC)C(=O)N[C@@H](CCCNC(=N)N)C(=O)O)[C@@H](C)CC — ΔΔG (Calmodulin-1, Ca2+-bound N-lobe (CALM1, Homo sapiens, UniProt P0DP23); binding, isothermal titration calorimetry; N-lobe, CaV2.1 IQ domain, unit not given, added: Ca2+; reference: wild-type IQ domain): 0.64
CNC1(C)C2CCC(C2)C1(C)C (stereo not drawn) — inhibition (Genome polyprotein NS3 helicase domain; DNA binding, inhibitor; hepatitis C virus; 100 µM, added: Cy5-dT15 DNA): 0%
CC[C@H](C)[C@H](NC(=O)[C@H](CCCCN)NC(=O)CNC(=O)[C@@H](NC(=O)[C@@H](NC(=O)[C@H](CCSC)NC(=O)[C@H](Cc1c[nH]cn1)NC(=O)CN)[C@@H](C)O)C(C)C)C(=O)N[C@@H](Cc1ccc(O)cc1)C(=O)N[C@@H](C)C(=O)N[C@@H](C)C(=O)N[C@@H](CCSC)C(=O)N[C@@H](CCSC)C(=O)N[C@H](C(=O)N[C@@H](CCSC)C(=O)N[C@@H](CCC(=O)O)C(=O)N[C@@H](C)C(=O)N[C@@H](Cc1ccc(O)cc1)C(=O)N[C@@H](CCCNC(=N)N)C(=O)N[C@@H](CCC(N)=O)C(=O)N[C@@H](CO)C(=O)N[C@@H](CCCCN)C(=O)N[C@@H](C)C(=O)N[C@@H](CCCCN)C(=O)N[C@@H](CCCCN)C(=O)N[C@@H](CC(C)C)C(=O)N[C@@H](CCC(N)=O)C(=O)N[C@@H](C)C(=O)N[C@@H](CCSC)C(=O)N[C@@H](CCCNC(=N)N)C(=O)O)[C@@H](C)CC — stoichiometry (Calmodulin-1, Ca2+-bound C-lobe (CALM1, Homo sapiens, UniProt P0DP23); binding, isothermal titration calorimetry; pH 7.4, 15 °C, Ca2+-bound C-lobe, added: CaV2.1 IQ peptide): 1.07 ± 0.08

For quick reference, copied from above:
O=S(=O)(NC1CCN(c2ncnc3c2nc(-c2ccccc2Cl)n3-c2ccc(C(F)(F)F)nc2)CC1)c1ccccc1F — selectivity ratio (CNR1; binding, [3H]CP55940 displacement; reference: Ki CB2 over Ki CB1): 100
Cc1ccc(N2CC(C(N)=O)CC2=O)cc1 (stereo not drawn) — log fold enrichment (SPRY domain-containing SOCS box protein 2, SPRY domain (Homo sapiens, UniProt Q99619); binding, affinity selection mass spectrometry; reference: other proteins in batch): 0.111
Nc1ccc(C(=O)O)cc1 — product formation (N-alpha-acetyltransferase 80 (NAA80, Homo sapiens, UniProt Q93015); substrate, DTNB; 2 mM, 30 min, 37 °C, added: acetyl-CoA 500 µM): -4.12 µM
Nc1nc2c(ncn2[C@@H]2O[C@H](COP(=O)(O)O)[C@@H](O)[C@H]2O)c(=O)[nH]1 — reaction rate (GUK1 (Homo sapiens, UniProt Q16774, T83A); enzyme activity, NADH-coupled; 62.5 µM): 14.4 s⁻¹ and 10.8 s⁻¹ and 11 s⁻¹
